Experimental data pooled from the literature.
A part holds a random share of what one study measured.
Chain of UniProt P10721 (whole entry, unmodified, looked up): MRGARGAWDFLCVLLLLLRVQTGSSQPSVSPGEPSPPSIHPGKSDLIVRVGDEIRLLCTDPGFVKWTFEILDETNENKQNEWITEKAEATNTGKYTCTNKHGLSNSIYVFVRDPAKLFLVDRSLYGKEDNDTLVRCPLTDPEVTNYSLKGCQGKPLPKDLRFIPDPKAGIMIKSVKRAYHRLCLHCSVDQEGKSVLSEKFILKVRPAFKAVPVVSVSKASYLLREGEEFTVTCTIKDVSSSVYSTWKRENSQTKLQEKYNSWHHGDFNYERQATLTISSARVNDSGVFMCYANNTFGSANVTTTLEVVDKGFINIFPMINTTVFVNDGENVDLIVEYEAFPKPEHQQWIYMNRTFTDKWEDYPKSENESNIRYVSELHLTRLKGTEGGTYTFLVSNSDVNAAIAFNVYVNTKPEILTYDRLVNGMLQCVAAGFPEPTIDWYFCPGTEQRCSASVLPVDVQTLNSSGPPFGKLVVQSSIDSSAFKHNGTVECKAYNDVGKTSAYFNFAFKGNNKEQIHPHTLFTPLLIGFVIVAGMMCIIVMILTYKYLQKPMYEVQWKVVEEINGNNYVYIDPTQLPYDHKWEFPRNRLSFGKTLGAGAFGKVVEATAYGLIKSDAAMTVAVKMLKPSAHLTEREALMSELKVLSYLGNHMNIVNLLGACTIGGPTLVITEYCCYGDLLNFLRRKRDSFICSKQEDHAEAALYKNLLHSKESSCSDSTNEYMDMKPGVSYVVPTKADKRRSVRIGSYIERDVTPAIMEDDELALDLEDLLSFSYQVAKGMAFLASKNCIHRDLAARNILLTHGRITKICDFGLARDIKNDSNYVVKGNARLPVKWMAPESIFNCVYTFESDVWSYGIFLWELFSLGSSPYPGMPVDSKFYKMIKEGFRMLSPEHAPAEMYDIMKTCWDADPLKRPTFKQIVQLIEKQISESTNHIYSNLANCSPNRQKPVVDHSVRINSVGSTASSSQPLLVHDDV
Chain of UniProt Q16288 (whole entry, looked up): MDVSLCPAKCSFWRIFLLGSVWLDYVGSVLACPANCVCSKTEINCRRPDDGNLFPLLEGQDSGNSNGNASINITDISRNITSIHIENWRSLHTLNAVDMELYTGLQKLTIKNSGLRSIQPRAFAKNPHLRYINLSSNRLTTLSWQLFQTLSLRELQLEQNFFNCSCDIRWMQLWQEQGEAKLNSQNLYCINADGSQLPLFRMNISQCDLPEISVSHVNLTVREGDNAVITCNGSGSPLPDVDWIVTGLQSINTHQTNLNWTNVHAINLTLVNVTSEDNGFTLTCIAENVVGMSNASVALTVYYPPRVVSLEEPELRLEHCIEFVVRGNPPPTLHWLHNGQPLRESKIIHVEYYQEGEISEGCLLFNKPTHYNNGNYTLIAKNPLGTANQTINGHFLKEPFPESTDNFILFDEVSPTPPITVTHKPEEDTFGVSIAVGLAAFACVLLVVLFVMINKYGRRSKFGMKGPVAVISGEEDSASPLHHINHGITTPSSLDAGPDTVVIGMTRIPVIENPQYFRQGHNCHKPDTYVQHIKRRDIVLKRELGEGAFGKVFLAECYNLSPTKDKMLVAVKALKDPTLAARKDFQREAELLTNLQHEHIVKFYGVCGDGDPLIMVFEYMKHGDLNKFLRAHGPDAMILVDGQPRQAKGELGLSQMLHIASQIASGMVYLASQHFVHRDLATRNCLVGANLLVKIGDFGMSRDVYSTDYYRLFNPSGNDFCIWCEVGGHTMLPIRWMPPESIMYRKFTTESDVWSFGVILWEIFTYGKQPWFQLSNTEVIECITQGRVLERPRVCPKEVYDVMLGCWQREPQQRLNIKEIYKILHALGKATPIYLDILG
Chain of UniProt O14965 (whole entry, looked up): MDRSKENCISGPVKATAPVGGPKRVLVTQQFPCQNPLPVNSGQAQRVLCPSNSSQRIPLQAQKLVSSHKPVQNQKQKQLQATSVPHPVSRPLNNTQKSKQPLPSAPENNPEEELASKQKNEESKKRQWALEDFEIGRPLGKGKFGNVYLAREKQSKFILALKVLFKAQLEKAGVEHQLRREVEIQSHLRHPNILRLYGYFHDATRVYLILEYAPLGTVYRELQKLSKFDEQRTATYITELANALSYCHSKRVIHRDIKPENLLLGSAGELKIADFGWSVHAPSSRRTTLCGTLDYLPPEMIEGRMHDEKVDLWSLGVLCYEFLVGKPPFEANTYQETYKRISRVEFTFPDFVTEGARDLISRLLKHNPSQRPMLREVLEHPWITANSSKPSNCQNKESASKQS

Set 1
SMILES: N#Cc1ccc(Nc2ccc3[nH]c(=O)[nH]c3c2)c(Cl)c1
Technique: competition with immobilised ligand
Concentration: 1 µM
Measurement: remaining binding
Serine/threonine-protein kinase ICK (CILK1, Homo sapiens, UniProt Q9UPZ9); binding: 97%
Tyrosine-protein kinase ABL1, non-phosphorylated (ABL1, Homo sapiens, UniProt P00519); cell-free assay: 100%
Ephrin type-B receptor 1 (EPHB1, Homo sapiens, UniProt P54762); cell-free assay: 93%
Mast/stem cell growth factor receptor Kit (KIT, Homo sapiens, UniProt P10721, L576P); cell-free assay: 89%
Serine/threonine-protein kinase Nek11 (NEK11, Homo sapiens, UniProt Q8NG66); cell-free assay: 100%
Mitogen-activated protein kinase kinase kinase 14 (MAP3K14, Homo sapiens, UniProt Q99558); cell-free assay: 100%
Uncharacterized serine/threonine-protein kinase SBK3 (SBK3, Homo sapiens, UniProt P0C264); cell-free assay: 96%
Dual specificity mitogen-activated protein kinase kinase 7 (MAP2K7, Homo sapiens, UniProt O14733); cell-free assay: 100%
Tyrosine-protein kinase ABL1, phosphorylated (ABL1, Homo sapiens, UniProt P00519, Q252H); cell-free assay: 100%
Phosphatidylinositol 4,5-bisphosphate 3-kinase catalytic subunit alpha isoform (PIK3CA, Homo sapiens, UniProt P42336, H1047Y); cell-free assay: 100%
Casein kinase I isoform alpha (CSNK1A1, Homo sapiens, UniProt P48729); cell-free assay: 100%
Mast/stem cell growth factor receptor Kit (KIT, Homo sapiens, UniProt P10721); cell-free assay: 100%
Myosin light chain kinase, smooth muscle (MYLK, Homo sapiens, UniProt Q15746); cell-free assay: 96%
Tyrosine-protein kinase Srms (SRMS, Homo sapiens, UniProt Q9H3Y6); cell-free assay: 100%
Serine/threonine-protein kinase 4 (STK4, Homo sapiens, UniProt Q13043); cell-free assay: 100%
Serine/threonine-protein kinase PAK 2 (PAK2, Homo sapiens, UniProt Q13177); cell-free assay: 79%
Serine/threonine-protein kinase N1 (PKN1, Homo sapiens, UniProt Q16512); cell-free assay: 100%

Set 2
Target: DNA polymerase theta, helicase domain (POLQ, Homo sapiens, UniProt O75417)
Chain of UniProt O75417 (whole entry, looked up): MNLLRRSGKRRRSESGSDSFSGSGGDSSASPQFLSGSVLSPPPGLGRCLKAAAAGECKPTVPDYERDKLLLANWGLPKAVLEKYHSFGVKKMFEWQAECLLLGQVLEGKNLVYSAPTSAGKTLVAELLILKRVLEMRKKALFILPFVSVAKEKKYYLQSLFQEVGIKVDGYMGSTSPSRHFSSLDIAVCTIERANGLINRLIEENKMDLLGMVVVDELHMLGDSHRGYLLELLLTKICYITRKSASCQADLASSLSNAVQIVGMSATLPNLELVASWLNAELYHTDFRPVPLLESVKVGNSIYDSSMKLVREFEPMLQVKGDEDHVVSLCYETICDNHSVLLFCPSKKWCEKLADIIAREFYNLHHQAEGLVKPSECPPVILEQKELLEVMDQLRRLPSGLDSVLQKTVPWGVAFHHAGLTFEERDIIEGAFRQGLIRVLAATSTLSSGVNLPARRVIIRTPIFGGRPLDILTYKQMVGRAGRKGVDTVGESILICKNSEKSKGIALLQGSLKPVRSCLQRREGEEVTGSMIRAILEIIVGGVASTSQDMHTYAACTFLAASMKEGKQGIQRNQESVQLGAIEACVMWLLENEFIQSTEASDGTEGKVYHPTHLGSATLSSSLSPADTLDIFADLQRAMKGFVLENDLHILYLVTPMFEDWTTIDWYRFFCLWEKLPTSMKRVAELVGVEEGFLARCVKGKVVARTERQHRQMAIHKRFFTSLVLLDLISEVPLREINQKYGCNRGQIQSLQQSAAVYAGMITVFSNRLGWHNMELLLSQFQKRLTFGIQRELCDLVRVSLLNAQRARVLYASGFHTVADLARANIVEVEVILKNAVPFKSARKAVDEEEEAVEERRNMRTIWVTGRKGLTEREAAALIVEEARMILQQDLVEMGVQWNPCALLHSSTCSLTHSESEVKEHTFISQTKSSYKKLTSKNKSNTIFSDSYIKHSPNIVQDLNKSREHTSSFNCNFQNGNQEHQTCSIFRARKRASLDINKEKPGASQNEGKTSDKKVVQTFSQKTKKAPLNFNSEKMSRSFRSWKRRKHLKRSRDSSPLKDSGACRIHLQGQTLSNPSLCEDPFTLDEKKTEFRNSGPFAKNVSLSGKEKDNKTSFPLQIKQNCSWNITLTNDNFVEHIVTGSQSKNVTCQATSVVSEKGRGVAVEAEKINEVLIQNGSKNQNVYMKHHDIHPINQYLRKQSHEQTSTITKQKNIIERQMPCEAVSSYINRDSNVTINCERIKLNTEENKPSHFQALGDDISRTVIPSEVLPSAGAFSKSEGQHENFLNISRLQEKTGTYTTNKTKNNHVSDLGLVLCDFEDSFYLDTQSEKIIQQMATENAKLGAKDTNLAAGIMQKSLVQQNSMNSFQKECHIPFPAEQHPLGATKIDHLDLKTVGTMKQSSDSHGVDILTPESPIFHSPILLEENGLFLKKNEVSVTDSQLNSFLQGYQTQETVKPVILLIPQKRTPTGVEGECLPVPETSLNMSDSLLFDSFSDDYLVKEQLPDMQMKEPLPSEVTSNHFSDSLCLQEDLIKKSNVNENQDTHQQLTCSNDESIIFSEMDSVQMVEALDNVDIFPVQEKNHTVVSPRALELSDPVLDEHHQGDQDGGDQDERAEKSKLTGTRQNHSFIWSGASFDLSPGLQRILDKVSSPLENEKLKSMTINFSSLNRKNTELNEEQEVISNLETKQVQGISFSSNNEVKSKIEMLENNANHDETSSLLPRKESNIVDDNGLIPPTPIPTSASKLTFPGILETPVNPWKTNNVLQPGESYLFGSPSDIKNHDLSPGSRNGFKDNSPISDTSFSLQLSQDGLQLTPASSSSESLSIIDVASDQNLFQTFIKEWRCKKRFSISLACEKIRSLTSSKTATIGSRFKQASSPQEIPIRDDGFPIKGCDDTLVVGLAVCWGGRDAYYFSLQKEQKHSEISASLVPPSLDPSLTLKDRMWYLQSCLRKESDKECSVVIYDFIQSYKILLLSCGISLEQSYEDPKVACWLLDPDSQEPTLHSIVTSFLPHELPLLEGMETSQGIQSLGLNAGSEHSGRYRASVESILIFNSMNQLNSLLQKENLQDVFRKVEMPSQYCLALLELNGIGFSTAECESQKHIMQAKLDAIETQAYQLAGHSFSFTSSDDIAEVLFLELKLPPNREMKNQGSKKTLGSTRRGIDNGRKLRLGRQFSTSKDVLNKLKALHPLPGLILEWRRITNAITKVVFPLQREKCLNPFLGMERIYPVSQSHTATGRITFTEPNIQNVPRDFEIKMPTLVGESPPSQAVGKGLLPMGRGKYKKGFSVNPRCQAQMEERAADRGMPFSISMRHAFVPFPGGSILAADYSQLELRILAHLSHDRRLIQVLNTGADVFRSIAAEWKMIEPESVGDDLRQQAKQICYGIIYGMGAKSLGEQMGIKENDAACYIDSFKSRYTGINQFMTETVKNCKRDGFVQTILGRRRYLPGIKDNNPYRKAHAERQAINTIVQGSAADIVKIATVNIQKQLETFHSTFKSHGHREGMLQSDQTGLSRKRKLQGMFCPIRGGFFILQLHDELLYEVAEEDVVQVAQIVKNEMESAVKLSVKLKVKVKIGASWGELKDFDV
Effect on: ATPase activity
Concentration: concentration not given
Notes: average
With: with ssDNA
Measurement: remaining activity
CCCCCCCCCCCCCCCC(=O)OC[C@H](O)[C@H]1OC(=O)C(O)=C1O: 23%
CSc1ccc(/C=C/c2nc3ccccc3n2S(=O)(=O)c2ccc(Br)cc2)cc1: 53.4%
CC(C)(C)c1ccc(S(=O)(=O)c2cnc(SCC(=O)Nc3ccc4c(c3)OCCO4)[nH]c2=O)cc1: 66.7%
Cc1ccc(C(=O)c2cc(O)c(O)c([N+](=O)[O-])c2)cc1: 50.8%
COc1ccc(S(=O)(=O)c2cnc(SCC(=O)Nc3cc(F)ccc3C)[nH]c2=O)cc1Cl: 57.9%
COc1ccc2c(c1)c(CC(=O)O)c(C)n2Cc1ccc(Cl)cc1: 69.2%
O=C1c2c(O)ccc(O)c2C(=O)c2c(NCCNCCO)ccc(NCCNCCO)c21: 22.5%
COc1cccc(C2C3=C(NN/C3=C3/C=CC=CC3=O)C(=O)N2CCc2ccc(OC)c(OC)c2)c1 (stereo not drawn): 58.9%
COC(=O)c1cc(Cl)ccc1NC(=O)CSc1ncc(S(=O)(=O)c2ccc(Br)cc2)c(=O)[nH]1: 36.7%
CSc1ccc(/C=C/c2nc3ccccc3n2S(=O)(=O)c2cccc(Cl)c2)cc1: 47.9%
N#Cc1c(O)c2c(-c3ccc(-c4ccccc4O)cc3)csc2[nH]c1=O: 50.7%
CC(=O)Oc1ccccc1C(=O)Nc1ncc([N+](=O)[O-])s1: 46.8%
CCCCCCCC/C=C\CCCCCCCC(=O)O: 100%

Set 3
Structure (SMILES): CC(=O)O/N=C1/C(c2c(O)[nH]c3cc(Br)ccc23)=Nc2ccccc21
Effect on: enzyme activity
Action: inhibitor
Concentration: 0.5 µM
Baseline: control
Measurement: remaining activity
STE20-like serine/threonine-protein kinase (SLK, Homo sapiens, UniProt Q9H2G2): 80.2%
G protein-coupled receptor kinase 5 (GRK5, Homo sapiens, UniProt P34947): 104%
NT-3 growth factor receptor (NTRK3, Homo sapiens, UniProt Q16288): 15.1%
Protein-tyrosine kinase 2-beta (PTK2B, Homo sapiens, UniProt Q14289): 85.9%
Mitogen-activated protein kinase kinase kinase 2 (MAP3K2, Homo sapiens, UniProt Q9Y2U5): 93.1%
Epidermal growth factor receptor (EGFR, Homo sapiens, UniProt P00533): 91.1%
Serine/threonine-protein kinase Nek9 (NEK9, Homo sapiens, UniProt Q8TD19): 86.7%
Mitogen-activated protein kinase kinase kinase 8 (MAP3K8, Homo sapiens, UniProt P41279): 104%
Mitogen-activated protein kinase 10 (MAPK10, Homo sapiens, UniProt P53779): 83%
Rho-associated protein kinase 2 (ROCK2, Homo sapiens, UniProt O75116): 91.7%
Cyclin-dependent kinase 7 (CDK7, Homo sapiens, UniProt P50613): 91.1%
Proto-oncogene tyrosine-protein kinase ROS (ROS1, Homo sapiens, UniProt P08922): 105%
Aurora kinase A (AURKA, Homo sapiens, UniProt O14965): 55.4%
Cyclin-dependent kinase 2, with cyclin A (CDK2, Homo sapiens, UniProt P24941): 22.3%
Homeodomain-interacting protein kinase 3 (HIPK3, Homo sapiens, UniProt Q9H422): 76.7%
Calcium/calmodulin-dependent protein kinase type 1G (CAMK1G, Homo sapiens, UniProt Q96NX5): 101%
Serine/threonine-protein kinase D1 (PRKD1, Homo sapiens, UniProt Q15139): 82.1%
Dual specificity tyrosine-phosphorylation-regulated kinase 4 (DYRK4, Homo sapiens, UniProt Q9NR20): 96.7%
Myotonin-protein kinase (DMPK, Homo sapiens, UniProt Q09013): 95.4%
Serine/threonine-protein kinase BRSK1 (BRSK1, Homo sapiens, UniProt Q8TDC3): 43.5%
Calcium/calmodulin-dependent protein kinase type 1D (CAMK1D, Homo sapiens, UniProt Q8IU85): 79.1%
Proto-oncogene tyrosine-protein kinase receptor Ret (RET, Homo sapiens, UniProt P07949): 6.58%
Serine/threonine-protein kinase N2 (PKN2, Homo sapiens, UniProt Q16513): 85.4%

Set 4
Cell line: mouse MPNST tumor cells
Technique: high-content nuclear imaging
Refers to: cell number
Concentration: 10 µM
Time: 12 h
Notes: mean of 2 replicates
Baseline: plate mean
Reading: higher = more cells
Measurement: nuclei count
O=C(Nc1ccc(Cl)nc1)c1ccc(Cl)cc1: 1.91 z-score
C=C(C)[C@@H]1CC[C@]2(C(=O)O)CC[C@]3(C)[C@H](CC[C@@H]4[C@@]5(C)CC[C@H](O)C(C)(C)[C@@H]5CC[C@]43C)[C@@H]12: 2.31 z-score
CN1CCC(=C2c3ccccc3CCc3sccc32)CC1: 1.29 z-score
Cc1csc(S(=O)(=O)N(CC(C)C)c2cc3c(cc2OCc2ccc(C(=O)O)cc2)CCC3)n1: 0.214 z-score
O=S(=O)(NCCNC/C=C/c1ccc(Br)cc1)c1cccc2cnccc12: -0.205 z-score
CC(C)n1c(=O)n(C(=O)NC2CC3CCC(C2)N3C)c2ccccc21 (stereo not drawn): 4.51 z-score
CN1c2ccc([N+](=O)[O-])cc2N=C(c2ccc(C(=O)O)cc2)c2cc3c(cc21)C(C)(C)CCC3(C)C: 2.98 z-score

For quick reference, copied from above (set 1):
Mast/stem cell growth factor receptor Kit (KIT, Homo sapiens, UniProt P10721, L576P); cell-free assay: 89%
Tyrosine-protein kinase ABL1, phosphorylated (ABL1, Homo sapiens, UniProt P00519, Q252H); cell-free assay: 100%
Mast/stem cell growth factor receptor Kit (KIT, Homo sapiens, UniProt P10721); cell-free assay: 100%
Tyrosine-protein kinase ABL1, non-phosphorylated (ABL1, Homo sapiens, UniProt P00519); cell-free assay: 100%
Serine/threonine-protein kinase N1 (PKN1, Homo sapiens, UniProt Q16512); cell-free assay: 100%
Mitogen-activated protein kinase kinase kinase 14 (MAP3K14, Homo sapiens, UniProt Q99558); cell-free assay: 100%
Phosphatidylinositol 4,5-bisphosphate 3-kinase catalytic subunit alpha isoform (PIK3CA, Homo sapiens, UniProt P42336, H1047Y); cell-free assay: 100%
